Published values of several laboratories.
Each numbered part is a random draw from the data of one study; scales do not carry over between parts.

Sample 1
Target: Sal-like protein 4, full length isoform B (SALL4, Homo sapiens, UniProt Q9UJQ4-2, residues 1-616)
Technique: universal PBM
Form: double-stranded DNA, one strand shown
Sample: in vitro
Tested at: not given
Notes: 8-mer, flanks averaged, mean of replicates
Reading: higher = stronger binding
Residues (chain): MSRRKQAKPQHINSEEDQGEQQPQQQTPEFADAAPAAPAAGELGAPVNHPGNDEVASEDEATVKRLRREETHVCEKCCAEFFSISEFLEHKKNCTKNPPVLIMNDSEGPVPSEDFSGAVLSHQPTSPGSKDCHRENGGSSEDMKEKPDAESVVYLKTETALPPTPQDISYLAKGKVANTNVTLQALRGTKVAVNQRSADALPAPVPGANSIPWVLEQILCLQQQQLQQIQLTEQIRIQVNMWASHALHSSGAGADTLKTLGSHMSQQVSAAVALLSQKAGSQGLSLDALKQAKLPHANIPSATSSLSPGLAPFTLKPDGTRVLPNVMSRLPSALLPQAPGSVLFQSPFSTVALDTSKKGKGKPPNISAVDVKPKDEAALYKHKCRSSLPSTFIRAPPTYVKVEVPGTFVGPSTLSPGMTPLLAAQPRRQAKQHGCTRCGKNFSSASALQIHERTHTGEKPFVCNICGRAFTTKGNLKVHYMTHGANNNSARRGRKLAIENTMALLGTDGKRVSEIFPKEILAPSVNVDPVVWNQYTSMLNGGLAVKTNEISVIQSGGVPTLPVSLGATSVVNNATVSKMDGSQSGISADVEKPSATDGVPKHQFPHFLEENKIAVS
Strand	E-score
AGGGCACT	-0.274
GTTGTTAA	0.216
AGGCACCT	-0.244
ACCGGCGC	-0.272
CGATTTAA	0.175
CTCAAGGA	-0.0228
ACTGATGA	0.15
AAGTGCAA	0.0751

Sample 2
Target: TAR DNA-binding protein 43, full length, His tag (TARDBP, Homo sapiens, UniProt Q13148, residues 1-414)
Technique: RNA Bind-n-Seq
Form: RNA
Sample: in vitro
Tested at: 20 nM
Notes: 6-mer, flanks averaged, single round
Added: 150 mM KCl
Relative to: input library
Reading: higher = stronger binding
Strand	6-mer enrichment (R)
CUCGCA	0.609
GCUUGA	0.829
CGACCA	0.675
GCGCCU	0.831
GGCGAC	1.66
AACUGA	0.641
ACCCCU	0.649
AUGGCG	1.51

Sample 3
Target: Hepatocyte nuclear factor 3-alpha (Foxa1, Mus musculus, UniProt P35582, residues 1-468, full length assumed)
UniProt P35582, sequence (whole entry, looked up): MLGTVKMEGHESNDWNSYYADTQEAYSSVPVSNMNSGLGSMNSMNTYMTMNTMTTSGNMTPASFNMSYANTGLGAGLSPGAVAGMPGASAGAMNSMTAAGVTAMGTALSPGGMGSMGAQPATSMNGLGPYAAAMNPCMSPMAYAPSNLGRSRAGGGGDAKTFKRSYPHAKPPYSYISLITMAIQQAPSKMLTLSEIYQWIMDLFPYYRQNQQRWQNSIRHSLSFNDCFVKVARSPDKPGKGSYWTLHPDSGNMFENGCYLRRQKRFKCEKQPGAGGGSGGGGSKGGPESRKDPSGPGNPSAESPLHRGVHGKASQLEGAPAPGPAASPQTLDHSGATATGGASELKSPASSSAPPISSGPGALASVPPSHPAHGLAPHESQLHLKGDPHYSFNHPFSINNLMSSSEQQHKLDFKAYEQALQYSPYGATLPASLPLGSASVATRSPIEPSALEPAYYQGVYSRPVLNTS
Technique: EMSA with sequencing
Form: double-stranded DNA, one strand shown
Sample: in vitro
Tested at: 10 and 20 nM
Notes: whole designed probe, mean of two concentrations, ends assumed
Relative to: negative control set to 0
Reading: higher = stronger binding
Strand	normalised bound fraction
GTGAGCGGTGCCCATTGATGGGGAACATCTTCCCCCTCTTCCTTGCCCCACCAGCTCACCTTCCCGGGTTATTTGCACAAAGGAAAATAAATAAAGCCGGCATTCGTTAACCCTCTTCTGGCGCAAACTGCTGTTTGCTCTGCATCTAACATGGTCCTTACGCGACGCCAGGCTCCGGGAGAGCAAAGCACCGTGTCAGGCGCATGATCCGGGCTCGCCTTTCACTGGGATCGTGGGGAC	0.378 ratio
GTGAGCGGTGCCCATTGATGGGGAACATCTTCCCCCTCTTCCTTGCCCCACCAGCTCACCTACGGGGGTTATTTGCAGATAGGAAAATAAATAAAGCCGGCATTCGTTAACCCTCTTCTGGCGCAAACTGCTGTTTGCTCTGCATCTAACATGGTCCTTACGCGAGGCGTGGCTCCGGGAGAGCAAAGCACCGTGTCAGGCGCATGATCCGGGGTGGCCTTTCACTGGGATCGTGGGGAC	0.357 ratio
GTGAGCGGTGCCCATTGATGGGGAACCTCAGCAAGGCTTTAAGGTCCTTAAAACATGACCCACACTAACCAGCCTTAGGTTTCCACTGTCTCATAGCTCAGTTTCCACCAAAATGGGGATATTTACCCAGAGATCTGTGCTCAGTTGGCTCTCTGCTTCTTGACTAGCTTCATTTACTGCCCATTGAAATTCTAACCCCAGGTCAAAAGCCATCTTTTCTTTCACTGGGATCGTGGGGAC	0.00884 ratio
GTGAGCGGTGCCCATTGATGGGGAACAGTCATAAAAGCAAAATAATACTGCCAACAAAGAAAATTTTACCTGGAAAAATTTACCTCTAGAATAAGGATAAAAAATAAAGACTTTATAAGGTAAACAAAAGCTGTCAGTCTTTGTCACCATGTGTATAGTTCTATAAGAAATGGTAAAGTAAATATATACACAGATCTACAATTCTCTACTATAATAATATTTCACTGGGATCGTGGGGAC	0.556 ratio
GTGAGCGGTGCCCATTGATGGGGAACATCTTCCCCCTCTTCCTTGCCCCACCAGCTCACCTACGGGGGTTATTTGCAGATAGGAAAATAAATAAAGCCGGCATTCGTTAACGCAGTTCACGCGCATACTGCTGTTTGCTCTGGATGAATCATGGTCCTTTGGCGACGCCAGGCTCCGGGAGAGCAAAGCACCGTGTCAGGGCCATGATCCGGGGTGGCCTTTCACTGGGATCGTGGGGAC	0.351 ratio

Mixed results
Compound	host	sample	tested at	time	quantity	value
COc1ccccc1CNC(=O)c1c(OCC(C)C)cc(=O)n2c1CCCCC2	human	microsomes or S9	2 µM	0.5 h	remaining compound	0.0537%
